Assay results of several laboratories.
Several values in a cell are separate wells, animals, samples, runs or records. ± gives the spread as reported. ≈ marks a conversion by molar mass, not a printed value.
Sequence of UniProt Q16891 (whole entry, looked up): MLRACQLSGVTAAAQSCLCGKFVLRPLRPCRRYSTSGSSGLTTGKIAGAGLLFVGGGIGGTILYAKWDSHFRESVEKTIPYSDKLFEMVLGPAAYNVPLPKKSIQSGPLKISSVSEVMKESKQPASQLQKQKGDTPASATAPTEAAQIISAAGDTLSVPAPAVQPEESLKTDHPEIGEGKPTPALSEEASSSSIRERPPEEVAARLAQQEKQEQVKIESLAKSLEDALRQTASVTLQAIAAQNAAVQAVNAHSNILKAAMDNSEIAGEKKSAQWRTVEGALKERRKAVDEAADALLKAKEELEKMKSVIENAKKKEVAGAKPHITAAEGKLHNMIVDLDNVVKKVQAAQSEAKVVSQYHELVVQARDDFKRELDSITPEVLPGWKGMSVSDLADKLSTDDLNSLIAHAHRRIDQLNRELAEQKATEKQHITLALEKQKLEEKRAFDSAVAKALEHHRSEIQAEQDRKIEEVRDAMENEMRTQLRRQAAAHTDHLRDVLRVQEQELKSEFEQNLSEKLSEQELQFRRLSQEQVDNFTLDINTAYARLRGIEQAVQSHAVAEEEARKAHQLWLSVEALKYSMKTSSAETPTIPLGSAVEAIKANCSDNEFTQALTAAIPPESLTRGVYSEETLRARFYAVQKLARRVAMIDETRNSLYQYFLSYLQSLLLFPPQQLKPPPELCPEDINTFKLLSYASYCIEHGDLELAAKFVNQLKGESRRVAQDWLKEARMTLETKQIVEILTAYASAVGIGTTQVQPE
Sequence of UniProt Q9Y233 (whole entry, looked up): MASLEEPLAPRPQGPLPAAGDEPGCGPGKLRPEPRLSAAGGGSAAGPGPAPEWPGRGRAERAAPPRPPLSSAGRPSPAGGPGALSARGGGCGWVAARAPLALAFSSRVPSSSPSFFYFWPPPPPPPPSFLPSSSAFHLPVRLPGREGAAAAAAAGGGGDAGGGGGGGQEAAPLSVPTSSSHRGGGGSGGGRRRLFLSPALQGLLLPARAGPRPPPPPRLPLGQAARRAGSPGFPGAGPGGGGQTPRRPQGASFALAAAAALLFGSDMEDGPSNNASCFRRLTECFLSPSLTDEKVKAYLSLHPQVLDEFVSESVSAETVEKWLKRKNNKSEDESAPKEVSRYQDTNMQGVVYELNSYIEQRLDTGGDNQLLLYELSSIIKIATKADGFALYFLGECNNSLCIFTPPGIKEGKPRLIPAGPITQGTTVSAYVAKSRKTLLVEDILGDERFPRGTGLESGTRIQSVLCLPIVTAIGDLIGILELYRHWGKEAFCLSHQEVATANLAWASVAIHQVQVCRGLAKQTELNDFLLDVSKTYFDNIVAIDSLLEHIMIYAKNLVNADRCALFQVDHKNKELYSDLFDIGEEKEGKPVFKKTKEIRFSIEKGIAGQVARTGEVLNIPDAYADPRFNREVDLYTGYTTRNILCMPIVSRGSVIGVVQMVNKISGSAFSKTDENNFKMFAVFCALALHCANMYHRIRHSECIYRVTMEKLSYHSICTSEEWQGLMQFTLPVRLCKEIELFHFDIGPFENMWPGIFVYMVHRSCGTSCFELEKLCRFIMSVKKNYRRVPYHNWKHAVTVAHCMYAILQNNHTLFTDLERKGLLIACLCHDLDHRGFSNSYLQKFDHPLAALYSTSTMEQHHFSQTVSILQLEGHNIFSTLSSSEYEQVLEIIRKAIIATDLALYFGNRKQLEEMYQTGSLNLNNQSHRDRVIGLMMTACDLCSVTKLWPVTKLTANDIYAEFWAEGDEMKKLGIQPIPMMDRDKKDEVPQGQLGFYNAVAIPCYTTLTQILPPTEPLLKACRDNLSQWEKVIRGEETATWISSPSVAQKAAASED

CC[C@H](C)[C@@H]1NC(=O)[C@@H]2CCCN2C(=O)[C@H](CC(C)C)NC(=O)[C@H](CC(C)C)NC(=O)CNC(=O)[C@@H](NC(=O)[C@@H](NC(=O)[C@H](CC(=O)O)NC(=O)CNC(=O)[C@@H](NC(=O)[C@H](C)NC(=O)CNC(=O)[C@H](CCCCN)NC(=O)[C@H](CC(C)C)NC(=O)[C@H](CC(C)C)NC(=O)[C@H](CCCCN)NC(=O)CNC(=O)[C@@H](NC(=O)[C@@H](N)CC(C)C)C(C)C)C(C)C)C(C)C)CSSC[C@@H](C(=O)O)NC1=O: “log2 fold change” -0.791 (RNA-seq, refers to: Prkab1; mouse, traumatic brain injury model, frontal cortex and hippocampus; dose not given; relative to: TBI alone).
CC(C)C[C@H](NC(=O)[C@H](CCC1CCCCC1)NC(=O)[C@@H]1CCCN1C(=O)c1ccc(F)cc1)C(=O)NC(C)(C)C(=O)N[C@@H](CC(C)C)C(=O)N[C@@H](CC(C)C)C(=O)NC(C)(C)C(=O)NC(C)(C)C(=O)NCCC(=O)NC1(CN(C)C)CCC1 has a leakage of greater than 90% (negatively charged GUVs; 1 µM).
CC1=C(O)C(=O)C=C2C1=CC=C1[C@@]2(C)CC[C@@]2(C)[C@@H]3C[C@](C)(C(=O)O)CC[C@]3(C)CC[C@]12C — result for spasm frequency: “decreased” (video-EEG; Sprague-Dawley rat pups, multiple-hit infantile spasms model; i.p., 4 mg/kg, 4 to 5 h, CELA-4 arm; relative to: vehicle).
CO[C@H]1C[C@@H]2CC[C@@H](C)[C@@](O)(O2)C(=O)C(=O)N2CCCC[C@H]2C(=O)O[C@H]([C@H](C)C[C@@H]2CC[C@@H](OC(=O)NCCOCCOCCOCCOCCOCCOCCOCCOCCC(=O)N3CCc4cc(Cn5nc(-c6ccc7oc(N)nc7c6)c6c(N)ncnc65)ccc4C3)[C@H](OC)C2)C[C@@H](O)[C@H](C)/C=C(\C)[C@@H](O)[C@@H](OC)C(=O)[C@H](C)C[C@H](C)/C=C/C=C/C=C/1C: “incidence of Dyspnea TEAE” 3.5% (patients with advanced solid tumours; intravenous, dose not given, grade ≥3).
CCc1cccc(N(C)C(=N)Nc2cccc3ccccc23)c1 gave an IC50 of 1 µM (Plasmodium falciparum; W2).
For CSCC[C@@H]1NC(=O)[C@H](Cc2c[nH]c3ccccc23)NC(=O)[C@@H](NC(=O)CCNC(=O)[C@H](CCC(N)=O)NC(=O)[C@@H]2CCCN2C(=O)[C@@H]2CCCN2C(=O)[C@H](CCCNC(=N)N)NC(=O)[C@H](CCCNC(=N)N)NC(=O)[C@H](CCCNC(=N)N)NC(=O)[C@H](CCC(N)=O)NC(=O)[C@H](CCCNC(=N)N)NC(=O)[C@H](CCCNC(=N)N)NC(=O)[C@H](CCCCN)NC(=O)[C@H](CCCCN)NC(=O)[C@H](CCCNC(=N)N)NC(=O)CN)CSSC[C@@H](C(=O)O)NC(=O)[C@H]([C@@H](C)O)NC(=O)CNC(=O)[C@H](CC(C)C)NC(=O)[C@H](Cc2c[nH]cn2)NC(=O)[C@H](CCCNC(=N)N)NC(=O)[C@@H]2CCCN2C(=O)[C@H](CO)NC1=O, the CK2α staining was 0.06 ± 0.014 IOD/area (immunohistochemistry, refers to: CSNK2A1; NCI-H226 xenograft mouse, tumour tissue; intravenous, 10 mg/kg, day 16).
Under “urinary sodium excretion Ae(0-24h)”, C[C@]1(CO)Cc2ncn(-c3ccc(C#N)c(Cl)c3)c2C(=O)O1 is recorded as 224 mmol (human; 5 mg single dose).
With COc1cc(Nc2ncc(F)c(Nc3ccc4c(n3)NC(=O)C(C)(C)O4)n2)cc(OC)c1OC the IC50 was greater than 10 µM (cAMP and cAMP-inhibited cGMP 3',5'-cyclic phosphodiesterase 10A (PDE10A, Homo sapiens, UniProt Q9Y233)).
Clc1cc2c(cc1Cl)Oc1cc(Cl)c(Cl)cc1O2 — result for “mRNA fold change”: 1.7 fold (RNA-Seq, refers to: Ptger4; Sprague-Dawley rat, female, liver; 10 µg/kg; relative to: vehicle).
C[C@H]1CN(c2n[nH]c3nc(N[C@H]4CC[C@H](NS(=O)(=O)CCC(F)(F)F)CC4)ncc23)CCO1 gave a remaining binding of 1.19 (MICOS complex subunit MIC60 (Homo sapiens, UniProt Q16891); Kinobeads competition, refers to: IMMT; 20 µM, unit not given; relative to: vehicle).
NCCc1ccccc1 — result for “log2 fold change”: 0.4 (binding, MIDAS equilibrium dialysis LC-MS; A2AR-BRIL thermostabilized; concentration not given; relative to: no-protein control).
N=C(N)NCCC[C@H](NC(=O)CCCCCNC(=O)[C@H](CCCNC(=N)N)NC(=O)[C@H](CCCNC(=N)N)NC(=O)CCCCCNC(=O)[C@H](CCCNC(=N)N)NC(=O)[C@H](CCCNC(=N)N)NC(=O)CCCCCNC(=O)[C@H](CCCNC(=N)N)NC(=O)[C@H](CCCNC(=N)N)NC(=O)CCCCCNC(=O)[C@@H](N)CCCNC(=N)N)C(=O)NCCCCCC(=O)NCCC(=O)O has an MIC of 192 µM (≈ 366 µg/mL) (broth microdilution; ATCC 27853 resistant strain, Mueller-Hinton broth).
For C[C@@H](NC(=O)c1ccc(C#Cc2cccc(F)c2)cn1)C(C)(C)O, “population spike inter-event interval” read 51.7 ± 7.8% (rat hippocampal CA3 slices; 10 µM, 10 min, spontaneous epileptiform activity; relative to: baseline).
Under “body weight loss”, Cc1ccc(S(=O)(=O)Nc2c(N[C@H]3CC[C@H](NC(=O)Nc4ccc(F)c(Cl)c4)CC3)c(=O)c2=O)cc1 is recorded as -11.9% (C57BL/6 mouse, DSS-induced colitis; oral, 100 mg/kg daily, day 8; relative to: baseline).
For C[C@H]1O[C@@H](O[C@H]2CC[C@@]3(C)[C@@H](CC[C@]4(C)[C@@H]3C=C[C@]35OC[C@@]6(CCC(C)(C)C[C@H]63)[C@@H](O)C[C@]54C)[C@]2(C)CO)[C@H](O)[C@@H](O[C@@H]2O[C@H](CO)[C@@H](O)[C@H](O)[C@H]2O)[C@H]1O, “body weight change” read 1.6 g and 1.4 g and 0.7 g and 1.9 g and 2.1 g (mouse, no ethanol, hepatic SIRT1 knockdown; dose not given, high dose, during treatment).
For Cc1nc(Nc2ccc(CC(=O)O)cc2)nc(Nc2ccc(F)c(C(F)(F)F)c2)c1C, fibrosis read “decreased” (C57BL/6J mouse, high-fat diet MASH model, white adipose tissue; intraperitoneal, 0.3 mg/kg daily, 60% fat diet for 12 weeks, dosed final four weeks; relative to: untreated).
CCCCC1(CCCC)CN(c2ccccc2)c2cc(SC)c(OCC(=O)N[C@@H](C(=O)NCC(=O)O)c3ccccc3)cc2S(=O)(=O)C1 — result for “serum LDL cholesterol”: 109 mg/dL (human; 5 mg once daily, 120 h).
The median PFS2 of CN(C)C(=O)c1cc2cnc(Nc3ccc(N4CCNCC4)cn3)nc2n1C1CCCC1 is reported as 50.6 months (HR+/HER2− advanced breast cancer patients; dose not given, region other).
COc1cc2c(Oc3ccc4[nH]c(C)cc4c3F)ccnc2cc1OCC1(N)CC1 — result for “grade 3 T-wave abnormality”: 0% (paediatric refractory sarcoma patients; 10 mg).
With CC[C@H](C)[C@H](NC(=O)[C@H](Cc1ccccc1)NC(=O)[C@H](CCC(=O)O)NC(=O)[C@H](CCCNC(=N)N)NC(=O)[C@H](C)NC(=O)[C@H](C)NC(=O)[C@H](CCC(N)=O)NC(=O)[C@H](CCC(=O)O)NC(=O)[C@H](CCC(=O)O)NC(=O)[C@H](CC(C)C)NC(=O)[C@H](Cc1ccc(O)cc1)NC(=O)[C@H](CO)NC(=O)[C@H](CO)NC(=O)[C@@H](NC(=O)[C@H](CC(=O)O)NC(=O)[C@H](CO)NC(=O)[C@@H](NC(=O)[C@H](Cc1ccccc1)NC(=O)[C@@H](NC(=O)CNC(=O)[C@H](CCC(=O)O)NC(=O)[C@H](C)NC(=O)CCc1c[nH]cn1)[C@@H](C)O)[C@@H](C)O)C(C)C)C(=O)N[C@@H](C)C(=O)N[C@@H](Cc1c[nH]c2ccccc12)C(=O)N[C@@H](CC(C)C)C(=O)N[C@H](C(=O)N[C@@H](CCCNC(=N)N)C(=O)NCC(=O)N[C@@H](CCCNC(=N)N)C(=O)N[C@@H](CCCCNC(=O)COCCOCCNC(=O)COCCOCCNC(=O)CC[C@H](NC(=O)CCCCCCCCCCCCCCCCC(=O)O)C(=O)O)C(=O)NCC(=O)NCC(=O)N[C@@H](CO)C(=O)N[C@@H](CCCCNc1c(NCCCCCN(O)C(=O)CCC(=O)NCCCCCN(O)C(=O)CCC(=O)NCCCCCN(O)C(C)=O)c(=O)c1=O)C(=O)O)C(C)C [zirconium-89 labelled] the tissue uptake was 0.13 %ID/g (gamma counting; rat, stomach-duodenum content; subcutaneous, 3 nmol/kg, 4 h).
For Fc1ccc([C@@H]2CCNC[C@H]2COc2ccc3c(c2)OCO3)cc1, the IC50 was 2.51 µM (Plasmodium falciparum; W2).

Excerpt of the above:
Clc1cc2c(cc1Cl)Oc1cc(Cl)c(Cl)cc1O2 — result for “mRNA fold change”: 1.7 fold (RNA-Seq, refers to: Ptger4; Sprague-Dawley rat, female, liver; 10 µg/kg; relative to: vehicle).
C[C@H]1CN(c2n[nH]c3nc(N[C@H]4CC[C@H](NS(=O)(=O)CCC(F)(F)F)CC4)ncc23)CCO1 gave a remaining binding of 1.19 (MICOS complex subunit MIC60 (Homo sapiens, UniProt Q16891); Kinobeads competition, refers to: IMMT; 20 µM, unit not given; relative to: vehicle).
